Measured values of several laboratories.
Protocols differ between the studies behind these lines. Values joined by “and” are separate records of one study, mostly repeats; a detail may differ. ± marks the error that the study gave.

For `CC(C(=O)O)n1nc(Cn2cc3cc(OCC[18F])c(Cl)cc3n2)c2ccccc2c1=O` (racemic), the hydrophilic radiometabolite was 12% (HPLC; nonhuman primate, plasma; 60 min post-injection; baseline: plasma radioactivity).
Under “critical micelle concentration”, `COC(=O)C[C@H](NC(=O)[C@H](Cc1ccc(-c2ccccc2)cc1)NC(=O)c1ccc(-c2ccc(OP(=O)(O)O)cc2)cc1)C(=O)OC` is recorded as 138 µM (PBS; pH 7.4, before phosphatase treatment).
`O=C1NC2(CC2)COc2ncc(F)cc2[C@H]2COCCN2c2ccn3ncc1c3n2` — result for “organ-to-brain weight ratio”: 27.4 ± 7.1% (Sprague-Dawley rat, female, thymus; oral, 20 mg/kg/day, 4 weeks, end of treatment).
Under “trans isomer at photostationary state”, `Cc1ccccc1/N=N/c1ccc2[nH]cc(CCN(C)C)c2c1` is recorded as 67% (light irradiation; solution; together with: light 530 nm).
`CCCCCCCCCCCCCCCC(=O)NCCCC[C@H](NC(=O)[C@H](CCC(=O)O)NC(=O)[C@H](Cc1ccc(O)cc1)NC(=O)[C@H](CCC(=O)O)NC(=O)COCC(=O)NCCCOCCOCCOCCCNC(=O)[C@H](Cc1ccccc1)NC(=O)[C@H](CC(N)=O)NC(=O)[C@H](Cc1c[nH]cn1)NC(=O)[C@@H](NC(=O)[C@H](CC(=O)O)NC(=O)[C@H](CCC(N)=O)NC(=O)[C@H](CC(C)C)NC(=O)[C@H](CCCCN)NC(=O)[C@H](CCCCN)NC(=O)[C@H](CCCNC(=N)N)NC(=O)[C@H](CC(C)C)NC(=O)[C@H](Cc1c[nH]c2ccccc12)NC(=O)[C@H](CCC(=O)O)NC(=O)[C@@H](NC(=O)[C@H](CCCNC(=N)N)NC(=O)[C@H](CCC(=O)O)NC(=O)[C@H](CCSC)NC(=O)[C@H](CO)NC(=O)[C@H](CC(N)=O)NC(=O)[C@H](CC(C)C)NC(=O)[C@H](Cc1c[nH]cn1)NC(=O)[C@H](CCCCN)NC(=O)CNC(=O)[C@H](CC(C)C)NC(=O)[C@H](CC(N)=O)NC(=O)[C@H](Cc1c[nH]cn1)NC(=O)[C@H](CCSC)NC(=O)[C@H](CC(C)C)NC(=O)[C@H](CCC(N)=O)NC(=O)[C@@H](NC(=O)[C@H](CCC(=O)O)NC(=O)[C@H](CO)NC(=O)[C@@H](NC(=O)[C@@H](N)CO)C(C)C)[C@@H](C)CC)C(C)C)C(C)C)C(=O)N[C@@H](CCC(=O)O)C(=O)N[C@@H](Cc1ccc(O)cc1)C(=O)N[C@@H](CCC(=O)O)C(N)=O` has a Tmax of 1.8 min (female CD-1 mouse, serum; intravenous, 10 nmol/kg).
The tissue uptake of `CSCC[C@H](NC(=O)CNC(=O)[C@H](CCCCN)NC(=O)[C@H](CC(C)C)NC(=O)[C@@H]1CCCN1C(=O)[C@H](CO)NC(=O)[C@H](Cc1c[nH]cn1)NC(=O)[C@H](Cc1c[nH]c2ccccc12)NC(=O)[C@H](CCCNC(=N)N)NC(=O)[C@H](CC(C)C)NC(=O)[C@H](CCCNC(=N)N)NC(=O)[C@H](Cc1c[nH]c2ccccc12)NC(=O)[C@H](CS)NC(=O)CCCCCNC(=O)CN1CCN(CC(=O)O)CCN(CC(=O)O)CCN(CC(=O)O)CC1)C(=O)O` [copper-64 labelled] is reported as 0.23 %ID/g (C57BL/6J mice, B16-F10 tumour, brain; intravenous, 1.85 MBq, 2 h).
`CSCC[C@H](NC(=O)[C@@H](NC(=O)[C@H](CC(C)C)NC(=O)[C@@H](NC(=O)[C@H](Cc1c[nH]cn1)NC(=O)CCCCCNC(=O)[C@H](CCCNC(=N)N)NC(=O)[C@H](CCCNC(=N)N)NC(=O)[C@H](CCCNC(=N)N)NC(=O)[C@H](CCC(N)=O)NC(=O)[C@H](CCCNC(=N)N)NC(=O)[C@H](CCCNC(=N)N)NC(=O)[C@H](CCCCN)NC(=O)[C@H](CCCCN)NC(=O)[C@H](CCCNC(=N)N)NC(=O)CNC(=O)[C@@H](N)Cc1ccc(O)cc1)C(C)C)C(C)C)C(=O)N[C@@H](CS)C(=O)N[C@@H](C)C(=O)N[C@H](C(N)=O)[C@@H](C)O` has an Eos of 3% and 0% and 2% (C57BL/6J mice; Alzet osmotic pump, 3 mg/kg, 8 weeks; baseline: leukocytes).
The viability of `Cc1ccc(OCCN(C)C)cc1C(=O)N[C@H](C)c1cc(-c2cccs2)nc2ccccc12` is reported as 21% and 22.5% (Vero E6; 15.62 µM).
`CC[C@H](C)[C@@H]1NC(=O)[C@H](Cc2ccc(O)cc2)NC(=O)CCCSC[C@@H](C(=O)N(CC(=O)N[C@@H](CC(C)C)C(=O)NCC(N)=O)Cc2ccc(F)cc2)NC(=O)[C@H](CC(N)=O)NC(=O)[C@H](CCC(N)=O)NC1=O` gave a deaths of 0% (human; intranasal, 200 µg single dose).
`CC(C)[C@@H]1NC(=O)[C@H](Cc2ccc(O)cc2)NC(=O)[C@H](Cc2ccccc2)NC(=O)[C@H]([C@@H](C)O)NC(=O)[C@@H](Cc2ccc(O)cc2)NC(=O)CSC[C@H](C(=O)NCCOCCOCCOCCOCCOCCOCCC(N)=O)NC(=O)[C@H](C)NC(=O)[C@H](CO)NC(=O)[C@@H]2CCC[C@@H]2NC(=O)[C@H](Cc2c[nH]cn2)NC(=O)[C@H](CCCNC(=N)N)NC(=O)[C@H](Cc2ccc(O)cc2)NC(=O)[C@H]([C@@H](C)O)NC(=O)[C@H](Cc2ccccc2)NC(=O)[C@H]([C@@H](C)O)NC(=O)[C@H](Cc2ccc(O)cc2)NC(=O)[C@H](Cc2ccccc2)NC1=O` — result for “time to complete degradation”: less than 10 min (simulated intestinal fluid; pH 6.8, 37 °C, together with: pancreatin).
`O=C(O)CC[C@H](NC(=O)[C@H](CCC(=O)O)NC(=O)[C@H](CCC(=O)O)NC(=O)[C@H](CCC(=O)O)NC(=O)[C@H](CCC(=O)O)NC(=O)CNC(=O)[C@H](CCC(=O)O)NC(=O)CNC(=O)[C@H](CCC(=O)O)NC(=O)[C@@H](Cc1ccccc1)NC(=O)[C@@H](Cc1ccccc1)NC(=O)Cc1ccc2ccccc2c1)C(=O)O`: “critical micelle concentration” 145 µM (PBS; pH 7.4).
The bioavailability of `CCCCCCCCCCCCCCCC(=O)N[C@@H](CCC(=O)NCCOCCOCCC(=O)NCCOCCOCCC(=O)NCCCC[C@H](NC(=O)[C@H](CC(=O)O)NC(=O)[C@H](CC(C)C)NC(=O)[C@H](Cc1ccc(O)cc1)NC(=O)[C@H](CCCCN)NC(=O)[C@H](CO)NC(=O)[C@H](Cc1ccc(O)cc1)NC(=O)[C@H](CC(=O)O)NC(=O)[C@H](CO)NC(=O)[C@@H](NC(=O)[C@H](Cc1ccccc1)NC(=O)[C@@H](NC(=O)CNC(=O)[C@H](CCC(N)=O)NC(=O)[C@@H](CO)NC(=O)[C@@H](N)Cc1c[nH]cn1)[C@@H](C)O)[C@@H](C)O)C(=O)N[C@@H](CCCNC(=N)N)C(=O)N[C@@H](CCCNC(=N)N)C(=O)N[C@@H](C)C(=O)N[C@@H](CCC(N)=O)C(=O)N[C@@H](CC(=O)O)C(=O)N[C@@H](Cc1ccccc1)C(=O)N[C@H](C(=O)N[C@@H](CCC(N)=O)C(=O)N[C@@H](Cc1c[nH]c2ccccc12)C(=O)N[C@@H](CC(C)C)C(=O)N[C@@H](CC(C)C)C(=O)N[C@@H](CC(N)=O)C(=O)N[C@H](C(=O)NCC(=O)NCC(=O)N1CCC[C@H]1C(=O)N[C@@H](CO)C(=O)N[C@@H](CO)C(=O)NCC(=O)N[C@@H](C)C(=O)N1CCC[C@H]1C(=O)N1CCC[C@H]1C(=O)N1CCC[C@H]1C(=O)N[C@@H](CO)C(N)=O)[C@@H](C)O)C(C)C)C(=O)O` is reported as 22% (rhesus monkey, plasma; subcutaneous, 20 µg/kg).
`CC(C)[C@@H]1NC(=O)CNC(=O)[C@H](CC(N)=O)NC(=O)[C@H](CCCNC(=N)N)NC(=O)[C@H](Cc2ccc(O)cc2)NC(=O)[C@H](C(C)C)NC(=O)[C@@H](NC(=O)[C@@H](NC(=O)[C@H](CC(N)=O)NC(=O)[C@H](Cc2c[nH]c3ccccc23)NC(=O)[C@H](C)NC(=O)[C@H](Cc2ccccc2)NC(=O)CNC(=O)[C@H](CCCCN)NC(=O)[C@H](Cc2ccccc2)NC(=O)[C@H](Cc2ccccc2)NC(=O)[C@H](CCCCN)NC(=O)OCC2c3ccccc3-c3ccccc32)C(C)C)CSSC[C@@H](C(=O)N[C@@H](Cc2c[nH]cn2)C(=O)N[C@@H](CCCNC(=N)N)C(=O)N[C@@H](CCCNC(=N)N)C(=O)N[C@@H](C)C(=O)N[C@@H](CC(N)=O)C(N)=O)NC(=O)[C@H](C(C)C)NC(=O)[C@H](CCCNC(=N)N)NC1=O` gave an eosinophils of 2.49 ± 0.26% (ICR mouse, blood; intramammary, 10 mg/kg, day 5, 3 d dosing).
`CCn1ccc(-c2cc([C@@H](C)NC(=O)c3cc(N4CCN(C)[C@H](C)C4)ccc3C)c3ccccc3n2)n1` gave a viability of 56.6% and 50.4% and 35.6% (Vero E6; 31.25 µM).
With `O=C(c1cc(Cc2n[nH]c(=O)c3ccccc23)ccc1F)N1CC(CNC2CC2)C1` the Cmax was 4530 ng/mL (male Wistar Han rat; oral, 60 mg/kg, day 28).

For quick reference, copied from above:
The tissue uptake of `CSCC[C@H](NC(=O)CNC(=O)[C@H](CCCCN)NC(=O)[C@H](CC(C)C)NC(=O)[C@@H]1CCCN1C(=O)[C@H](CO)NC(=O)[C@H](Cc1c[nH]cn1)NC(=O)[C@H](Cc1c[nH]c2ccccc12)NC(=O)[C@H](CCCNC(=N)N)NC(=O)[C@H](CC(C)C)NC(=O)[C@H](CCCNC(=N)N)NC(=O)[C@H](Cc1c[nH]c2ccccc12)NC(=O)[C@H](CS)NC(=O)CCCCCNC(=O)CN1CCN(CC(=O)O)CCN(CC(=O)O)CCN(CC(=O)O)CC1)C(=O)O` [copper-64 labelled] is reported as 0.23 %ID/g (C57BL/6J mice, B16-F10 tumour, brain; intravenous, 1.85 MBq, 2 h).
